Published values of several laboratories.
Protocols differ between the studies behind these lines. ± marks the error that the study gave.
Mc1r: Melanocyte-stimulating hormone receptor (Mc1r, Mus musculus, UniProt Q01727)
GRM4: Metabotropic glutamate receptor 4 (GRM4, Homo sapiens, UniProt Q14833)
LDHA: L-lactate dehydrogenase A chain (LDHA, Homo sapiens, UniProt P00338)
Taar1 Y287N: Trace amine-associated receptor 1 (Taar1, Mus musculus, UniProt Q923Y8, Y287N)
ALDH1A1: Aldehyde dehydrogenase 1A1 (ALDH1A1, Homo sapiens, UniProt P00352)
GLP1R: Glucagon-like peptide 1 receptor (GLP1R, Homo sapiens, UniProt P43220)
Lysophospholipase-like protein 1: Lysophospholipase-like protein 1 (Mus musculus, UniProt Q3UFF7)

The chains behind the UniProt entries cited, without tags or fusion partners. Where a name states a change or a piece, a line headed by the entry shows the natural chain unless it says otherwise. Residues count along the entry.
UniProt Q01727, whole entry: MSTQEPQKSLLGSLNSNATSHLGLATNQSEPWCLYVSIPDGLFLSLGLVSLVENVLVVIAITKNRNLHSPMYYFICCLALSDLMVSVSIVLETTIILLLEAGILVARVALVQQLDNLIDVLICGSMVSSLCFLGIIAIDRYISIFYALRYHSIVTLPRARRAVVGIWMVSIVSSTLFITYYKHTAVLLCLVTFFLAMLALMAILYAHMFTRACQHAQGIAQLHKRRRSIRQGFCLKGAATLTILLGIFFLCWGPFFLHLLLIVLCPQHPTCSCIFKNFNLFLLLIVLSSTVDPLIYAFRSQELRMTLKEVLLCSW
UniProt Q14833, 33-912 limits assumed: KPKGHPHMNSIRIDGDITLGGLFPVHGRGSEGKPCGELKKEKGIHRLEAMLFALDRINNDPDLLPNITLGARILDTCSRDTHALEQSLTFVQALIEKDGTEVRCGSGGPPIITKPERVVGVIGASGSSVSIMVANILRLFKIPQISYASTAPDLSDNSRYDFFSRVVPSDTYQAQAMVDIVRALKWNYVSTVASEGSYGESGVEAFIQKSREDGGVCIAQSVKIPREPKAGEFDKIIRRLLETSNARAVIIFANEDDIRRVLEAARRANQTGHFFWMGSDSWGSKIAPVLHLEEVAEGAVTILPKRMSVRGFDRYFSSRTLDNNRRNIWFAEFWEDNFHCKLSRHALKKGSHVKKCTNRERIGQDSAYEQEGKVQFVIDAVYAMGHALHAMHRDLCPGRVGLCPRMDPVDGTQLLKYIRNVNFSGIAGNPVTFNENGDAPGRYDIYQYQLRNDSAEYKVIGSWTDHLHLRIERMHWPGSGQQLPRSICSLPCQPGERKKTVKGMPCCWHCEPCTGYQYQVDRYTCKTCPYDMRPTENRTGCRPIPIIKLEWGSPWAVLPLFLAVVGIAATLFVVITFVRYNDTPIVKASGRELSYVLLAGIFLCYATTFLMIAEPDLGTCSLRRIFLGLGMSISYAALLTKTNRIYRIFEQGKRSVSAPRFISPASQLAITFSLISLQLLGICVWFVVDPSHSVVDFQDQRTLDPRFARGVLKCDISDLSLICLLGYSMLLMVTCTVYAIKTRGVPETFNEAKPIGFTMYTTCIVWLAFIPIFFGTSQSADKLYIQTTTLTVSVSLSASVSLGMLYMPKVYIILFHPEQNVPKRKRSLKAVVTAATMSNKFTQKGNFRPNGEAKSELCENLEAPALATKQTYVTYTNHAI
UniProt Q923Y8, whole entry Y287N: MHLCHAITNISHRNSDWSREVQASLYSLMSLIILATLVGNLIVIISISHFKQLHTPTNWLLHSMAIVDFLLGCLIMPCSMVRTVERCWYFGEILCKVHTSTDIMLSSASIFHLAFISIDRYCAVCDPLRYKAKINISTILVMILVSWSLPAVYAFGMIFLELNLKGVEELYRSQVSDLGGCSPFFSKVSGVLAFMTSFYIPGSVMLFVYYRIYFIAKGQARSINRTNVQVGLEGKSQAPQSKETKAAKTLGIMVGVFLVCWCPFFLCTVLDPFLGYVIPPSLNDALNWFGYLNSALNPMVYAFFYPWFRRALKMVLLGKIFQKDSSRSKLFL
UniProt Q923Y8, whole entry: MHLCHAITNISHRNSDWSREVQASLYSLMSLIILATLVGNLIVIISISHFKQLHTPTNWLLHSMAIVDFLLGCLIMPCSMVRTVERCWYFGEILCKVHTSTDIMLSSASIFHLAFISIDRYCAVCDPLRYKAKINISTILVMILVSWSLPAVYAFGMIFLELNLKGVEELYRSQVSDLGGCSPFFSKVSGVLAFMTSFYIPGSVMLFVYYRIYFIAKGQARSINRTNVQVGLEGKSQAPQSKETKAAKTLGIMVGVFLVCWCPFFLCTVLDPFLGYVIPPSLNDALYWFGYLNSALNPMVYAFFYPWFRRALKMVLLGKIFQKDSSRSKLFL
UniProt P00352, whole entry: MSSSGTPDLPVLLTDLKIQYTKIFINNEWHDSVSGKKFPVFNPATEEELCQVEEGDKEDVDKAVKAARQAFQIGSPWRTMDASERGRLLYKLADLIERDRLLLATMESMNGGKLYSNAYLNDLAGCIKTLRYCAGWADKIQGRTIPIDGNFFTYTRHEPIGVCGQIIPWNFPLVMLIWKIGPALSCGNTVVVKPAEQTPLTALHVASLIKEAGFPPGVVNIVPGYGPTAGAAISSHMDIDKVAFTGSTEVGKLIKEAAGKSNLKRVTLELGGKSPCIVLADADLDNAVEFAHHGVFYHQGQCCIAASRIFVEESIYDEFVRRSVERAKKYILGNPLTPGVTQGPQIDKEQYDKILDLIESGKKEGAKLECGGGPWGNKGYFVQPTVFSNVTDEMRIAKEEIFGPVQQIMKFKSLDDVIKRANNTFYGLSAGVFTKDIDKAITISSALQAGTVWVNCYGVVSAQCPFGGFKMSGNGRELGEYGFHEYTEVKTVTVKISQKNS
UniProt P43220, whole entry, looked up: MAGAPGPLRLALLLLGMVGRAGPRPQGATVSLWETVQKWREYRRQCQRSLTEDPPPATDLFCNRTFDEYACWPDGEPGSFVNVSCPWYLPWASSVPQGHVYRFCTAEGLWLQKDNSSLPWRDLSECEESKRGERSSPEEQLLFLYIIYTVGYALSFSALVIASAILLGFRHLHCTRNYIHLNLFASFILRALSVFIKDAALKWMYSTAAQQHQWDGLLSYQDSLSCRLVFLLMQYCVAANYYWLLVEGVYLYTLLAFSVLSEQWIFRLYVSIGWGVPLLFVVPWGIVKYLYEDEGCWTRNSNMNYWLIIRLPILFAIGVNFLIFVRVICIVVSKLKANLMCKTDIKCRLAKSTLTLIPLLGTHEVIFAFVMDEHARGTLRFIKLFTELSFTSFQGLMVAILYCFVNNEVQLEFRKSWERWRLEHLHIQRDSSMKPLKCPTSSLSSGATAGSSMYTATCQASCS
UniProt Q3UFF7, whole entry: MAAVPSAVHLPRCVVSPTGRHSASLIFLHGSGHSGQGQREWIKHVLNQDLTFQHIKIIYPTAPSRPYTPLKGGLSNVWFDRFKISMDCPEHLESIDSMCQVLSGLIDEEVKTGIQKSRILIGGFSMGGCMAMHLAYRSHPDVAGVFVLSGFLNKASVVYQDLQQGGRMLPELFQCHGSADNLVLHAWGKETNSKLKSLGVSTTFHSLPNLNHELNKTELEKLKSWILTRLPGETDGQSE
UniProt P31423, 33-912 limits assumed: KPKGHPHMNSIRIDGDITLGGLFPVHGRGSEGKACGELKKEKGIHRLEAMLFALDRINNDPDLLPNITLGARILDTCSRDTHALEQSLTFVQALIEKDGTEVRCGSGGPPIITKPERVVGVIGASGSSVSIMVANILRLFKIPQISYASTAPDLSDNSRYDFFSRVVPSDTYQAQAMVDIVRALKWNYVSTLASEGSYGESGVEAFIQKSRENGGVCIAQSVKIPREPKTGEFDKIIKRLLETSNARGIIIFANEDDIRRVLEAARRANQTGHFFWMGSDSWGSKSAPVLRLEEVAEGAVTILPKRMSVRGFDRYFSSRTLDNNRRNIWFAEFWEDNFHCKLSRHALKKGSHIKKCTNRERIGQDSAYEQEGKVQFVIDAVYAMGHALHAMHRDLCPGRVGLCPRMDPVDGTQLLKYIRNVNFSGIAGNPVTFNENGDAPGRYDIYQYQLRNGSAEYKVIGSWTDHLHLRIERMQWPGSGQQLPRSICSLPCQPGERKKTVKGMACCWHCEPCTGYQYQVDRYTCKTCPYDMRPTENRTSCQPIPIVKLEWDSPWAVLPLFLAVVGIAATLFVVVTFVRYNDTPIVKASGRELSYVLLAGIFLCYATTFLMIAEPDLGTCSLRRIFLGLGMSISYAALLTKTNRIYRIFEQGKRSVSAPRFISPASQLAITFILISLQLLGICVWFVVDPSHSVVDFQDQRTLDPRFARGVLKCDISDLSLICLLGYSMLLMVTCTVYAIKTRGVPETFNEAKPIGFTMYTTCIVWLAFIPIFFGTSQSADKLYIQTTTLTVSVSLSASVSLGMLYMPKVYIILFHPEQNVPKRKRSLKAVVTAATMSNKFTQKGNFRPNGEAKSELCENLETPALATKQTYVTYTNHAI
UniProt P08912, whole entry: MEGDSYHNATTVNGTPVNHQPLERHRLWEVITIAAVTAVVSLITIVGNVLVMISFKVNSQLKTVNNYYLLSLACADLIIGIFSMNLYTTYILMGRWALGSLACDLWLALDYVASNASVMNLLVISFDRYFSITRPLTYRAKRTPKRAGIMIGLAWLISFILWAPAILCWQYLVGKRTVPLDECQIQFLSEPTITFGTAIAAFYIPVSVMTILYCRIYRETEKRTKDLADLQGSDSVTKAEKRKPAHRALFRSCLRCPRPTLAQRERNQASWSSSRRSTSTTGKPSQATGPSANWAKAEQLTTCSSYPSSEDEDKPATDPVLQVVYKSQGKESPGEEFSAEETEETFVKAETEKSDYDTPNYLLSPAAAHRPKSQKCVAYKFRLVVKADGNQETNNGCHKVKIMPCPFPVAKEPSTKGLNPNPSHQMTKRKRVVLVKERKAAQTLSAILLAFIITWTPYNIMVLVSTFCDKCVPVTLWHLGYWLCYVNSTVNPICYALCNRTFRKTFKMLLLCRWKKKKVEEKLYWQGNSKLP
UniProt P41594, 21-1212 limits assumed: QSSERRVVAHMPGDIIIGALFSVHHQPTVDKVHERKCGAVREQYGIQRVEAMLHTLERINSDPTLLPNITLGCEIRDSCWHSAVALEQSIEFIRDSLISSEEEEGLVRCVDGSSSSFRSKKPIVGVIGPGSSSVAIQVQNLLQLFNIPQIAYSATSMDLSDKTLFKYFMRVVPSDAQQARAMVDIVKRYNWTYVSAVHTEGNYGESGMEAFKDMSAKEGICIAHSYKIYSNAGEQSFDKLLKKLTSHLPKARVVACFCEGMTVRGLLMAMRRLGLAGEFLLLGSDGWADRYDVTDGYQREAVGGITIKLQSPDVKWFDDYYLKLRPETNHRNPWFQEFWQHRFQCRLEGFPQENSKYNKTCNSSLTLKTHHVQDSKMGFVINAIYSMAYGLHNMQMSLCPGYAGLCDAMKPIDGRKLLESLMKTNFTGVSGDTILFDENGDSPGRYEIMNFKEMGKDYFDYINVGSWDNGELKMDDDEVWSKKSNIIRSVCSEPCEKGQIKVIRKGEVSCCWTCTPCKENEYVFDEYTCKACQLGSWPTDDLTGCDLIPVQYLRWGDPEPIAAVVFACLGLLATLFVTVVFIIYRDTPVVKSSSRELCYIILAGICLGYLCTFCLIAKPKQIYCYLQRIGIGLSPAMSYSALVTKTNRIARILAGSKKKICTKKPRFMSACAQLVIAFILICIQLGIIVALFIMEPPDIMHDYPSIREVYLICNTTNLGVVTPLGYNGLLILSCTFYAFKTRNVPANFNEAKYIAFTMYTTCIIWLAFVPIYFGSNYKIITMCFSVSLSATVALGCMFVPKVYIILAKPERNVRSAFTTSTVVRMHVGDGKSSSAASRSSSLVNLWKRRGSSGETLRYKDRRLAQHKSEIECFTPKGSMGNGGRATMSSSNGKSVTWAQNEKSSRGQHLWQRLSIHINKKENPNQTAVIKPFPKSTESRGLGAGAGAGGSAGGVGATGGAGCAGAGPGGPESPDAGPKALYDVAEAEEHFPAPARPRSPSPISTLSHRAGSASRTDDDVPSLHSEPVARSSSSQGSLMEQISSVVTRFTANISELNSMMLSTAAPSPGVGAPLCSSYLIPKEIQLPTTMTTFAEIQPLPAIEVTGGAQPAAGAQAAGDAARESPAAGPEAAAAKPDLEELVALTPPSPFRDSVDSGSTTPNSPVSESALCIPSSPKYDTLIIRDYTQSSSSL
UniProt P30518, whole entry: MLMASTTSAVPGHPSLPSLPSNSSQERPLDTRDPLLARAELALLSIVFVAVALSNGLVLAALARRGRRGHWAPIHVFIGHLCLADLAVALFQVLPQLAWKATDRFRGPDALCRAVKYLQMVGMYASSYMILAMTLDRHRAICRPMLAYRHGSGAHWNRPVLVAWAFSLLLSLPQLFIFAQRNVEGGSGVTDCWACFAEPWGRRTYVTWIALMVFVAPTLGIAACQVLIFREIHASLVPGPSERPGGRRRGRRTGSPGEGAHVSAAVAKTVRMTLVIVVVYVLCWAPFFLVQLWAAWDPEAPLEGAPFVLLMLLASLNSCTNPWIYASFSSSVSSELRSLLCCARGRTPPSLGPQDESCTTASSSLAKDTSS
UniProt Q5VWZ2, whole entry: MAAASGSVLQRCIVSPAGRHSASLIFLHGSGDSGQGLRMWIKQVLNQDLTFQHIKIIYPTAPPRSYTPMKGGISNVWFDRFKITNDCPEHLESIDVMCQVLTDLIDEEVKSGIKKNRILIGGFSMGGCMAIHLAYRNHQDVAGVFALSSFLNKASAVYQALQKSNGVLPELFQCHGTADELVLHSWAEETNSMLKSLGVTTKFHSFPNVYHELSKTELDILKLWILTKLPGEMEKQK

For `NCCCCNC(=O)[C@H](Cc1ccc(Cl)cc1)NC(=O)N1CCc2ccccc2C1`, the EC50 was over 100000 nM (Mc1r; reporter gene, agonist, β-galactosidase reporter; HEK293 stably expressing Mc1r).
`O=S(=O)(c1cccc(C(F)(F)F)c1)N1CCC(Cn2cnc3cccc(C(F)(F)F)c32)CC1` has an EC50 of 6600 nM (KCNT1 (Homo sapiens, UniProt Q5JUK3); thallium flux, activator; HEK293 expressing KCNT1).
`O=C(Nc1ccccc1F)C12CC1/C(=N\O)c1ccccc1O2` (stereo not drawn) has an EC50 of over 5000 nM (GRM4; calcium mobilization, positive allosteric modulator; CHO hmGluR4/Gqi5; together with: glutamate EC20).
For `Cc1nc(-c2ccc(OCC(C)C)c(C#N)c2)sc1C(N)=O`, the EC50 was 2100 nM (Grm4 (Rattus norvegicus, UniProt P31423); thallium flux; HEK293 GIRK).
For `Cc1cnc(C#Cc2cccc(-c3nn(-c4nc(C(=O)O)cs4)c(CC4CC4)c3Cc3ccc(S(N)(=O)=O)c(F)c3)c2)o1`, the EC50 was 40 nM (LDHA; thermal stabilisation, CETSA; HEK293; 3.5 min, 71 °C).
`NCC(c1ccc(O)cc1)c1ccc(Oc2ccccc2)cc1` (stereo not drawn) has an EC50 of 176 ± 32 nM (Taar1 Y287N; cAMP, agonist; mouse receptor mutant).
`Cc1c(=O)n(C)c(Nc2ccc(I)cc2F)c2c(=O)n(C3CC3)c(=O)n(-c3cccc(NC(=O)CCOCCOCCNC(=O)CCC4=[N+]5C(=Cc6ccc(-c7ccc[nH]7)n6[B-]5(F)F)C=C4)c3)c12` has an EC50 of 167 ± 27 nM (Dual specificity mitogen-activated protein kinase kinase 1, with ARAF (MAP2K1, Homo sapiens, UniProt Q02750); binding, NanoBRET; HEK-293T; MEK1-NanoLuc with ARAF).
With `NCC(c1ccc(O)cc1)c1ccc(O)cc1` the EC50 was over 10000 nM (Taar1 (Mus musculus, UniProt Q923Y8); cAMP production, agonist; HEK293).
The EC50 of `CCCn1c(NCc2cccc(OC)c2O)nc2ccccc21` is reported as 750 ± 74 nM (ALDH1A1; enzyme activity, inhibitor, NADH absorbance 340 nm; pH 7.5, 25 °C, 200 µM NAD+, together with: 100 µM propionaldehyde).
The EC50 of `Cc1[nH]c2cc(Cl)cc(Cl)c2c1CCn1cc(CCCN)nn1` is reported as 560 nM (GLP1R; cAMP accumulation, positive allosteric modulator, HTRF; CHO-K1 expressing GLP1R; crude reaction product, together with: GLP-1(9-36) at EC20).
`COc1ccc(NC(=O)CN2CCCN(S(=O)(=O)c3ccc(C(C)(C)C)cc3)CC2)c(OC)c1` has an EC50 of over 10000 nM (GRM4; calcium mobilization, positive allosteric modulator; CHO cells with Gqi5; together with: glutamate EC20).
`O=C(O)CCNC(=O)c1ccc(NCc2cn(CC3(c4ccc(Cl)cc4)CC3)nn2)cc1` has an EC50 of 5780 nM (GLP1R; cAMP accumulation, positive allosteric modulator, HTRF; CHO-K1 expressing GLP1R; together with: GLP-1 at EC20).
`Nc1nc(NCc2ccc(Cl)cc2)nn1S(=O)(=O)c1cccc2ccccc12` gave an EC50 of 2400 nM (Lysophospholipase-like protein 1; enzyme activity, activator, gel-based ABPP, FP-rhodamine; purified protein).
The EC50 of `CNc1nc(C#Cc2ccc(Cl)s2)nc2c1ncn2[C@H]1[C@H](O)[C@H](O)[C@]2(C#N)C[C@H]12` is reported as 2200 nM (SLC6A3 (Homo sapiens, UniProt Q01959)).
The EC50 of `COc1ccc(NC(=O)CN2CCCN(S(=O)(=O)c3ccoc3)CC2)c(OC)c1` is reported as over 10000 nM (GRM4; calcium mobilization, positive allosteric modulator; CHO cells with Gqi5; together with: glutamate EC20).
`CC(C)(Cn1cc(CNC(=O)Cc2ccccc2)nn1)c1c[nH]c2ccccc12` has an EC50 of 1020 ± 122 nM (GLP1R; cAMP accumulation, positive allosteric modulator, HTRF; CHO-K1 expressing GLP1R; purified compound, together with: GLP-1(9-36) at EC20).
With `NCC(c1ccccc1)c1cccc(Oc2ccccc2)c1` (stereo not drawn) the EC50 was 102 ± 21 nM (Taar1 Y287N; cAMP, agonist; mouse receptor mutant).
The EC50 of `Nc1nc(SCc2ccc(Cl)c(Cl)c2)nn1S(=O)(=O)c1ccc2c(c1)CCO2` is reported as 770 nM (Lysophospholipase-like protein 1; enzyme activity, activator, gel-based ABPP, FP-rhodamine; purified protein).
`NCCCCNC(=O)[C@H](Cc1ccc2ccccc2c1)NC(=O)N1CCc2ccccc2C1` has an EC50 of over 100000 nM (Mc1r; reporter gene, agonist, β-galactosidase reporter; HEK293 stably expressing Mc1r).
`O=C(Nc1ccc([N+](=O)[O-])cc1)N[C@@H](Cc1c[nH]c2ccccc12)C(=O)NCC1(c2ccccn2)CCCCC1` gave an EC50 of 12900 ± 3400 nM (FPR1 (Homo sapiens, UniProt P21462); Ca2+ mobilization, agonist; HL-60 transfected with FPR1).
The EC50 of `CCCN(C(=O)C1CCN(S(=O)(=O)c2ccc3[nH]ncc3c2)CC1)[C@@H]1CCc2ccccc21` is reported as 112 nM (CHRM5 (Homo sapiens, UniProt P08912); positive allosteric modulator, calcium mobilization; CHO cells expressing human M5; together with: acetylcholine EC20).
`Cc1cc(NC(=O)c2cccc(NC(=O)C3=CC(C)(C)CCC3=O)c2)ccc1Nc1nccc(-c2cccnc2)n1` has an EC50 of 76 ± 30 nM (MAPK8 (Homo sapiens, UniProt P45983); JNK1 binding, NanoBRET; HEK293 cells; 2 h, together with: tracer K-5).
For `CSc1cc(NC(=O)c2ccccn2)ccc1Cl`, the EC50 was over 30000 nM (GRM5 (Homo sapiens, UniProt P41594); agonist).
`COc1ccccc1-c1cc(C(F)(F)F)nc(S(C)(=O)=O)n1` gave an EC50 of 18000 ± 13000 nM (AVPR2 (Homo sapiens, UniProt P30518); cAMP accumulation, positive allosteric modulator; CHO-K1 overexpressing target; together with: vasopressin at EC20).
`Cc1[nH]c2cc(Cl)cc(Cl)c2c1CCn1cc(CCCCO)nn1` gave an EC50 of 658 nM (GLP1R; cAMP accumulation, positive allosteric modulator, HTRF; CHO-K1 expressing GLP1R; crude reaction product, together with: GLP-1(9-36) at EC20).
`Nc1nc(SCc2ccc(Cl)cc2)nn1S(=O)(=O)c1cccc2nonc12` gave an EC50 of 230 nM (LYPLAL1 (Homo sapiens, UniProt Q5VWZ2); enzyme activity, activator, gel-based ABPP, FP-rhodamine; purified protein).
For `CCc1ccc(NS(=O)(=O)c2cn(Cc3ccccn3)c3ncccc23)cc1`, the EC50 was 1700 nM (CFTR (Homo sapiens, UniProt P13569, N1303K); chloride current, co-potentiator, short-circuit current; FRT expressing CFTR; together with: forskolin, 5 µM ivacaftor).
`CN(C(=O)Cc1c[nH]c2ccccc12)[C@H](C(=O)Nc1ccc(F)cc1)c1ccccc1` has an EC50 of 90 nM (CFTR (Homo sapiens, UniProt P13569, del508-508); potentiator, YFP halide quenching; FRT cells, expressing CFTR and YFP-H148Q/I152L; rescue 24 h at 27 °C).
For `COc1ccc(NC(=O)CN2CCCN(S(=O)(=O)c3ccco3)CC2)c(OC)c1`, the EC50 was 3300 ± 300 nM (GRM4; calcium mobilization, positive allosteric modulator; CHO cells with Gqi5; together with: glutamate EC20).
`Cc1[nH]c2cc(Cl)cc(Cl)c2c1CCn1cc(CCCC#N)nn1` has an EC50 of 627 ± 233 nM (GLP1R; cAMP accumulation, positive allosteric modulator, HTRF; CHO-K1 expressing GLP1R; purified compound, together with: GLP-1(9-36) at EC20).
`CCn1nc(C)cc1C(=O)Nc1nc2cc(C(N)=O)cc(OC)c2n1C/C=C/Cn1c(NC(=O)c2cc(C)nn2CC)nc2cc(C(N)=O)cc(OCCCN3CCN(CC(=O)NCCNC(=O)CCCCCN4C(=O)C=CC4=O)CC3)c21` has an EC50 of 871 ± 119 nM (Sting1 (Mus musculus, UniProt Q3TBT3); IFN-β secretion, agonist, ELISA; mouse BMDCs; carrier-free cysteine-blocked click).
For `O=C(Nc1cccnc1)C12CC1/C(=N\O)c1ccccc1O2` (stereo not drawn), the EC50 was over 5000 nM (GRM4; calcium mobilization, positive allosteric modulator; CHO hmGluR4/Gqi5; together with: glutamate EC20).
The EC50 of `CCCn1c(NCc2cccc(F)c2O)nc2ccccc21` is reported as 3000 ± 50 nM (ALDH1A1; enzyme activity, inhibitor, NADH absorbance 340 nm; pH 7.5, 25 °C, 200 µM NAD+, together with: 100 µM propionaldehyde).
`Nc1nc(SCc2ccc(Cl)cc2)nn1S(=O)(=O)c1ccc(-c2ccccc2)nc1` gave an EC50 of 190 nM (Lysophospholipase-like protein 1; enzyme activity, activator, gel-based ABPP, FP-rhodamine; purified protein).
For `COCC#Cc1cc(-c2nn(-c3nc(C(=O)O)cs3)c(CC3CC3)c2Cc2ccc(S(N)(=O)=O)c(F)c2)ccc1F`, the EC50 was 60 nM (LDHA; thermal stabilisation, CETSA; HEK293; 3.5 min, 71 °C).
`Cc1[nH]c2cc(Cl)cc(Cl)c2c1CCn1cc(CCN)nn1` has an EC50 of 1130 ± 295 nM (GLP1R; cAMP accumulation, positive allosteric modulator, HTRF; CHO-K1 expressing GLP1R; purified compound, together with: GLP-1(9-36) at EC20).

Excerpt of the above:
`NCC(c1ccc(O)cc1)c1ccc(Oc2ccccc2)cc1` (stereo not drawn) has an EC50 of 176 ± 32 nM (Taar1 Y287N; cAMP, agonist; mouse receptor mutant).
`NCCCCNC(=O)[C@H](Cc1ccc2ccccc2c1)NC(=O)N1CCc2ccccc2C1` has an EC50 of over 100000 nM (Mc1r; reporter gene, agonist, β-galactosidase reporter; HEK293 stably expressing Mc1r).
